Assay results from different studies.
Protocols differ between the studies behind these lines. ≈ marks a conversion by molar mass, not a printed value.
Organism: Mycobacteroides abscessus

`CO[C@H]1/C=C/O[C@@]2(C)Oc3c(C)c(O)c4c(c3C2=O)C2=NC3(CCN(CC(C)C)CC3)NC2=C(NC(=O)/C(C)=C\C=C\[C@H](C)[C@H](O)[C@@H](C)[C@@H](O)[C@@H](C)[C@H](OC(C)=O)[C@@H]1C)C4=O` gave an IC90 of 3.18 µM (bacterial growth; subsp. abscessus clinical isolate; slow grower).
`O=C(CO/N=c1\cc2n(-c3ccc(Cl)cc3)c3ccccc3nc-2cc1Nc1ccc(Cl)cc1)NCc1ccc2c(c1)CCO2` gave an MIC of over 30 µM (bacterial growth; ATCC 19977).
The MBC of `CC[C@H]1OC(=O)[C@H](C)[C@@H](O[C@H]2C[C@@](C)(OC)[C@@H](O)[C@H](C)O2)[C@H](C)[C@@H](O[C@@H]2O[C@H](C)C[C@H](N(C)C)[C@H]2O)[C@](C)(OC)C[C@@H](C)C(=O)[C@H](C)[C@@H](O)[C@]1(C)O` is reported as 100 µM (≈ 74.8 µg/mL) (ATCC 19977, caseum surrogate; 5 d, non-replicating).
For `O=C(CNc1ccc(Br)cc1)NC1C2CC3CC(C2)CC1C3` (stereo not shown), “potency fold over aniline analogue” read 16 fold.
`C[C@H](NC(=O)CO/N=c1\cc2n(-c3ccc(Cl)cc3)c3ccccc3nc-2cc1Nc1ccc(Cl)cc1)C(=O)OC(C)(C)C` gave an MIC of over 30 µM (bacterial growth; clinical isolate).
`O=C(CNc1ccc(OC(F)(F)F)cc1)NC12CC3CC(CC(C3)C1)C2`: “potency fold over aniline analogue” 8 fold.
`Nc1nc(N)c(OCCCOc2ccccc2CCC(=O)O)c(CCCCO)n1` gave an MIC of 76.7 µg/mL (resazurin microtiter; ATCC 19977).
The MIC of `Clc1ccc(Nc2cc3nc4ccccc4n(-c4ccc(Cl)cc4)c-3c/c2=N\OCc2ccccc2)cc1` is reported as over 30 µM (bacterial growth; clinical isolate).
`CCCCCCC#Cc1cncc(-c2nnc(SCc3ccc(Cl)cc3)n2C)c1` gave an MIC of at least 200 µM (no activity below value).
The MIC of `CCc1nc(N)nc(N)c1OCCCOc1ccccc1CCC(=O)O` is reported as 10.1 µg/mL (resazurin microtiter; ATCC 19977).

A few entries again:
`O=C(CO/N=c1\cc2n(-c3ccc(Cl)cc3)c3ccccc3nc-2cc1Nc1ccc(Cl)cc1)NCc1ccc2c(c1)CCO2` gave an MIC of over 30 µM (bacterial growth; ATCC 19977).
